Assay results pooled from the literature.
Compare with care: the assays were run in different laboratories.
Observed: metabolic stability
Medium: liver microsomes

The scaled CLint of Cc1ncsc1-c1ccc([C@@H]2CCCCCCNC(=O)C[C@@H]3N=C(c4ccc(cc4)OCCCCCC(=O)N[C@@H](C(C)(C)C)C(=O)N4C[C@H](O)C[C@H]4C(=O)N2)c2c(sc(C)c2C)-n2c(C)nnc23)cc1 is reported as 244 mL/min/kg (mouse; 1 µM).
For Fc1ccc(OCC2CN(Cc3cn4ccccc4n3)CCC2(F)F)cc1F (stereo not shown), the scaled CLint was 1960 mL/min/kg (mouse).
For CC(C)n1ncc2c(C(=O)NCC3CCN3)cc(C3CC3)nc21 (stereo not shown), the scaled CLint was 234 mL/min/kg (mouse).
For C/C(=N\OCCN(C)Cc1ccccc1)c1ccc(C(F)(F)F)cc1, the scaled CLint was 2750 mL/min/kg (mouse).
O=C(c1ccc(C23CC(S(F)(F)(F)(F)F)(CO2)C3)cc1)N1CCN(c2ncccn2)CC1 gave a microsomal CLint of 119 µL/min/mg (mouse).
Fc1ccc(OCC2CN(Cc3ncc4ccccn34)CCC2(F)F)cc1 (stereo not shown) gave a scaled CLint of greater than 5930 mL/min/kg (mouse).
The microsomal CLint of CC(C)n1ncc2c(C(=O)NC[C@@H](C)N)cc(C3CC3)nc21 is reported as less than 9.6 µL/min/mg (mouse).
CN(Cc1cc(C2CC2)on1)C(=O)c1cccc(-c2ccc(F)cc2)c1 has a microsomal CLint of 117 µL/min/mg (male CD-1 mouse; 2 µM, pH 7.5).
Cn1ncc2cc(CN3CCC(F)(F)C(COc4ccc(C#N)cc4)C3)ccc21 (stereo not shown) gave a scaled CLint of 2240 mL/min/kg (mouse).
CC(C)(C)[C@H](NC(=O)c1ccc(Oc2ccc(C(=O)N[C@H]3CCCC[C@@H]3O)cc2)cc1)C(=O)NCCN1CCCC1 has a microsomal CLint of 12.4 µL/min/mg (mouse; 1 µM, pH 7.4).
OCCn1nc(-c2ccccc2)c2c(Cl)c(-c3ccccc3)nnc21 gave a microsomal CLint of greater than 554 µL/min/mg (mouse; 1 µM).
CCC(CC)CNC(=N)NC(=N)NCCCCCCNC(=N)NC(=N)NCC(CC)CC has a microsomal CLint of 21.4 µL/min/mg (mouse; 2 µM).
With Cn1ncc2cc(CN3CCC(F)(F)C(COc4cccc(F)c4)C3)ccc21 (stereo not shown) the scaled CLint was 672 mL/min/kg (mouse).
The microsomal CLint of CNCCNC(=O)c1cc(C2CC2)nc2c1cnn2C(C)C is reported as 114 µL/min/mg (mouse).
The microsomal CLint of Nc1nc(SCc2ccc(Cl)cc2)nn1S(=O)(=O)c1ccc2c(c1)CCO2 is reported as 233 µL/min/mg (mouse; 1 µM, pH 7.4).
CC(C)n1ncc2c(C(=O)NC3(C)CNC3)cc(C3CC3)nc21 gave a microsomal CLint of less than 9.6 µL/min/mg (mouse).
With Cc1nn(C)c2nnc(-c3ccccc3)c(Cl)c12 the microsomal CLint was greater than 554 µL/min/mg (mouse; 1 µM).
With CC(C)n1ncc2c(C(=O)NCCN)cc(C3CC3)nc21 the scaled CLint was less than 38 mL/min/kg (mouse).
For COc1ccc(CN2CCC(F)(F)C(COc3ccc(F)c(C)c3)C2)cc1F (stereo not shown), the scaled CLint was 705 mL/min/kg (mouse).
